Published values of several laboratories.
A part holds a random share of what one study measured. Changes are numbered by the printed parent chain.
UniProt Q13043, sequence (whole entry, looked up): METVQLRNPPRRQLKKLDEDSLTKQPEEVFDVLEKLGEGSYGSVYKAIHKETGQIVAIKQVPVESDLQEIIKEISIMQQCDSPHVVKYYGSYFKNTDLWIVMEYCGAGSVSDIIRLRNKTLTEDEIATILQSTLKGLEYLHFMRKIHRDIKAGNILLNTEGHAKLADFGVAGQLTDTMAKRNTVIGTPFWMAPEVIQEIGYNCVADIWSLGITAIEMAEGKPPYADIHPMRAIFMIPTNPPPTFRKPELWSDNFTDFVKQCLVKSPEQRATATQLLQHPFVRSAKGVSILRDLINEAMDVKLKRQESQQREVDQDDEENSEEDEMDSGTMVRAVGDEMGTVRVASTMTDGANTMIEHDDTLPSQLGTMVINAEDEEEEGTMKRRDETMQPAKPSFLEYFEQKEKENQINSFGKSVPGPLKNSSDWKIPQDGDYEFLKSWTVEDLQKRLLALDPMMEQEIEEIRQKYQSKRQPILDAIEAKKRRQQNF
UniProt P00519, sequence (whole entry, looked up): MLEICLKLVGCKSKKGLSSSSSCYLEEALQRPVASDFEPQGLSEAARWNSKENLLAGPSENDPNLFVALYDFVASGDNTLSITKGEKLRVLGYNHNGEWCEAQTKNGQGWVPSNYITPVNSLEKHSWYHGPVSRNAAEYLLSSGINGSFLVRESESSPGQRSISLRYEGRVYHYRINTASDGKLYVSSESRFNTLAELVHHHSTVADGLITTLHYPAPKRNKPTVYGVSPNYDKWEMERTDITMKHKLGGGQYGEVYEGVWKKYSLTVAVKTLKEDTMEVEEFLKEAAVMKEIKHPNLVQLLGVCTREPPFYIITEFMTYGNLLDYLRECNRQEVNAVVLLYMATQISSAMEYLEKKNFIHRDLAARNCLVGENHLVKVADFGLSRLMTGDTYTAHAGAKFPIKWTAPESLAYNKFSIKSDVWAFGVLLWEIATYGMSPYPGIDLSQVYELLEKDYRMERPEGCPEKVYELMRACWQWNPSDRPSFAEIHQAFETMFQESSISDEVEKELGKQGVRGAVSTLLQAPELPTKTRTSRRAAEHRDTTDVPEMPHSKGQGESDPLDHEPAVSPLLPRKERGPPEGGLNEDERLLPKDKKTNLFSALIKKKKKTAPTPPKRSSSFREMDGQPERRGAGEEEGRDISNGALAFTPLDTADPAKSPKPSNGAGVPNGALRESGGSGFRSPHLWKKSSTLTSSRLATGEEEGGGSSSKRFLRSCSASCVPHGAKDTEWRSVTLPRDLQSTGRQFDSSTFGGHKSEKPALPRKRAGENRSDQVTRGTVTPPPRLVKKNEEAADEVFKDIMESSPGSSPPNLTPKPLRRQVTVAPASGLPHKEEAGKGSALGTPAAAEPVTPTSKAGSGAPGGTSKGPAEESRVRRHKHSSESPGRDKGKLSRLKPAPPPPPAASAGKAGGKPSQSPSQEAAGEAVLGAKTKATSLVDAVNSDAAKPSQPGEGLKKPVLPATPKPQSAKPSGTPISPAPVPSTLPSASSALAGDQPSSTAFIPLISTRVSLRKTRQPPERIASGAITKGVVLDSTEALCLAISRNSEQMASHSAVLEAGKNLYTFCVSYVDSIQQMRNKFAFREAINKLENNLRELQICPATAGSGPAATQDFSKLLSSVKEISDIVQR
UniProt P11802, sequence (whole entry, looked up): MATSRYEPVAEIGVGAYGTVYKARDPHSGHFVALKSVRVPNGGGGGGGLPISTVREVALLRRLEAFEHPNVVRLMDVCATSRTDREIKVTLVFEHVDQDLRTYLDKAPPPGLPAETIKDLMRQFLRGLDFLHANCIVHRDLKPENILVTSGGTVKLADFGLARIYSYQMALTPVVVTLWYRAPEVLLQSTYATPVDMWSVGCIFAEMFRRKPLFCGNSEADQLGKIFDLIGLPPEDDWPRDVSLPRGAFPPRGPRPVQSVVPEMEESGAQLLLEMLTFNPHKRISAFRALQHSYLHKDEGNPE
UniProt P04629, sequence (whole entry, looked up): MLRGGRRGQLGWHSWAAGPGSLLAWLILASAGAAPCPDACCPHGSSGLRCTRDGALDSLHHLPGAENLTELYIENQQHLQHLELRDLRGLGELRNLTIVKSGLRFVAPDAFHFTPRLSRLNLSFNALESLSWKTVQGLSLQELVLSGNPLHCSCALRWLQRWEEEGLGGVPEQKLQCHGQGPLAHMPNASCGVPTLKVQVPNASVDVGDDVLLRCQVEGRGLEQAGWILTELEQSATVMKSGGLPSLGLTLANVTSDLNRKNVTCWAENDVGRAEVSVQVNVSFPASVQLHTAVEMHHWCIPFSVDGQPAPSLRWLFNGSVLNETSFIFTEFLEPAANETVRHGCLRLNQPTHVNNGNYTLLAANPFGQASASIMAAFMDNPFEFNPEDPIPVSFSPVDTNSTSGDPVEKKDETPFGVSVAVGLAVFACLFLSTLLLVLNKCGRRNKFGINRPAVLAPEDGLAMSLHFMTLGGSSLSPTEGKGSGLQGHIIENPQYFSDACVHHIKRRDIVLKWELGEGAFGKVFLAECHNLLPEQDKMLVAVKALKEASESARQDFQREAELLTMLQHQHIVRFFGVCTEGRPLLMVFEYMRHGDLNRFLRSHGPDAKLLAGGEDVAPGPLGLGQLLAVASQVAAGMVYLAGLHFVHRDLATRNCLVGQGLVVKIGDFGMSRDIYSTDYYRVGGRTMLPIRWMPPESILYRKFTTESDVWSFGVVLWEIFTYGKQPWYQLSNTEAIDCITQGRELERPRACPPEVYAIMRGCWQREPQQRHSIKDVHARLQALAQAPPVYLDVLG
UniProt P42336, sequence (whole entry, unmodified, looked up): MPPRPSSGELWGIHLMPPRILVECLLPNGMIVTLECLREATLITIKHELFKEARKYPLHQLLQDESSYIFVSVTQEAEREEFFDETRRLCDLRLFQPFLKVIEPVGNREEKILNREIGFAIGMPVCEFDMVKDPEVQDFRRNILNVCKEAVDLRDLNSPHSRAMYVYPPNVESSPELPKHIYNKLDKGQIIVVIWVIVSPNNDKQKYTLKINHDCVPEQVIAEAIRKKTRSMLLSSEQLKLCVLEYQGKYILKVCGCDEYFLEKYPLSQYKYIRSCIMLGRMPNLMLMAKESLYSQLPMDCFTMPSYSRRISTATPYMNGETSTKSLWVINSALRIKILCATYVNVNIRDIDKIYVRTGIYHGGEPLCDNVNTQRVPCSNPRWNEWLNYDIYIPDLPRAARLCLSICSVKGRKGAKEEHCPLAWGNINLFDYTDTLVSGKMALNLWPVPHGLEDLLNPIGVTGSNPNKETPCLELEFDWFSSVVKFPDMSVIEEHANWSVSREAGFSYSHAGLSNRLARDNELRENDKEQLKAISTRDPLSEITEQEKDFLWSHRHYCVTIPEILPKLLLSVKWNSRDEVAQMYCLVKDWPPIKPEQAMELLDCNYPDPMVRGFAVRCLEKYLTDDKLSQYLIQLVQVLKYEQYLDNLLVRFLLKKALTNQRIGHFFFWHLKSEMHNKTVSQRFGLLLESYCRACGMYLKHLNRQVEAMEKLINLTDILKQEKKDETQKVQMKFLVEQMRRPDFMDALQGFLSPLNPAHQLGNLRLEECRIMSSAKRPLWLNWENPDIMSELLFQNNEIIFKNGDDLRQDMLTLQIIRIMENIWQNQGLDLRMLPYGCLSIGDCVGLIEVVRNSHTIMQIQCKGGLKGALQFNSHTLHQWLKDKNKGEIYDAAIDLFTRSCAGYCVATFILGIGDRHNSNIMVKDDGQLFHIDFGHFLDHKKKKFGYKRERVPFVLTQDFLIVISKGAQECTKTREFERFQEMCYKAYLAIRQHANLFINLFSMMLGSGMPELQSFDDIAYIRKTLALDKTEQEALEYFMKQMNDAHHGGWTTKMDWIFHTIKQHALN
UniProt P07948, sequence (whole entry, looked up): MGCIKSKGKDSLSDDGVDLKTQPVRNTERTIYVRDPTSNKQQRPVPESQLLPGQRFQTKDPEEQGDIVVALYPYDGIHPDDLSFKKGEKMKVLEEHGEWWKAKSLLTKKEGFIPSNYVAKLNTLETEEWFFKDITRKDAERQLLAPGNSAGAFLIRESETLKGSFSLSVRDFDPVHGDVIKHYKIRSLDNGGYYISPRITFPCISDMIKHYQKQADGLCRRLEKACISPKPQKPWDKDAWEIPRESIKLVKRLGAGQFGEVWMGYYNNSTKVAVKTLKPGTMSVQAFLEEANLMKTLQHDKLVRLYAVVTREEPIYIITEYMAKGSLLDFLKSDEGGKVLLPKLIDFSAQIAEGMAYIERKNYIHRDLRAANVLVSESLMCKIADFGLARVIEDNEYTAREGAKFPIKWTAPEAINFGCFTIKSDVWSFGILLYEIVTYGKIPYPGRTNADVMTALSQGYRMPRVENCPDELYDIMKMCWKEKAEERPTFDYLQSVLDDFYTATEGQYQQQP
UniProt P51813, sequence (whole entry, looked up): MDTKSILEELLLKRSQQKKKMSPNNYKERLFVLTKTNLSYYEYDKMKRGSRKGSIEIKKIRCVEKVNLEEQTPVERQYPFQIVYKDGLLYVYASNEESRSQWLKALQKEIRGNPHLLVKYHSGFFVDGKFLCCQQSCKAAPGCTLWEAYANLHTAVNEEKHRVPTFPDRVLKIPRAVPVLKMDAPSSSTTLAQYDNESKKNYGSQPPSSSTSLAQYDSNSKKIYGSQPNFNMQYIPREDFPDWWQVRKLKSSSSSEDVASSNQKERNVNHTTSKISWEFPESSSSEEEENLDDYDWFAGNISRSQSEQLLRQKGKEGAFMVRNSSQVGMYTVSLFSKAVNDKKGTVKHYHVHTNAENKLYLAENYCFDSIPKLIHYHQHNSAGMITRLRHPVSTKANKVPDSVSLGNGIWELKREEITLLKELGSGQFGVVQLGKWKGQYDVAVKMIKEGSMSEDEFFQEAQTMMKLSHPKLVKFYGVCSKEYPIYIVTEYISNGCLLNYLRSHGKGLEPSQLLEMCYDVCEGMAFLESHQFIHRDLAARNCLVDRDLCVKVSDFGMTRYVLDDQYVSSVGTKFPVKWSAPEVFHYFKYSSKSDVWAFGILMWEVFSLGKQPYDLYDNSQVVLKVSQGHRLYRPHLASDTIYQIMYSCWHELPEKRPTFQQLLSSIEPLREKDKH

Sample 1 — cell line: A-375; tested at: 100 µM; time: 36 h
`O=C(N[C@H](CO)[C@H](O)c1ccc([N+](=O)[O-])cc1)C(Cl)Cl` has a viability of 110%.
With `O=C(O)C[C@H](O)C[C@H](O)/C=C/c1c(C2CC2)nc2ccccc2c1-c1ccc(F)cc1` the viability was 44.8%.
For `C/C(=C(\CCOP(=O)(O)O)SC(=O)c1ccccc1)N(C=O)Cc1cnc(C)nc1N`, the viability was 92.6%.
`CC1=NS(=O)(=O)c2cc(Cl)ccc2N1` has a viability of 106%.

Sample 2 — cell line: mouse MPNST tumor cells; technique: high-content nuclear imaging; item: cell number; tested at: 10 µM; time: 12 h; setting: mean of 2 replicates; reference: plate mean; direction: higher = more cells
`CC(=O)Nc1ccc(CC(=O)O)cc1` has a nuclei count of 0.231 z-score.
`CN(C)C[C@H](O)Cn1c2ccc(Br)cc2c2cc(Br)ccc21` (racemic) gave a nuclei count of -6.55 z-score.
The nuclei count of `C[N+](C)(C)CCCCCC[N+](C)(C)C` is reported as 0.651 z-score.

Sample 3 — tested at: 1 µM
Compound: O=C(O)[C@@H]1[C@@H](Cn2nnc3ccccc3c2=O)CC[C@H]1C(=O)c1ccc(OCCC2CCOCC2)cc1
STK4 (Homo sapiens, UniProt Q13043); cell-free assay, competition with immobilised ligand — remaining binding: 98%.
For BMX (Homo sapiens, UniProt P51813); cell-free assay, competition with immobilised ligand: remaining binding read 100%.
AAK1 (Homo sapiens, UniProt Q2M2I8); binding — remaining binding: 100%.
For MAPK9 (Homo sapiens, UniProt P45984); cell-free assay, competition with immobilised ligand: remaining binding read 100%.
Cyclin-dependent kinase 4, with cyclin D1 (CDK4, Homo sapiens, UniProt P11802); cell-free assay, competition with immobilised ligand — remaining binding: 96%.
DYRK1A (Homo sapiens, UniProt Q13627); cell-free assay, competition with immobilised ligand — remaining binding: 94%.
The remaining binding was 100% (AXL (Homo sapiens, UniProt P30530); cell-free assay, competition with immobilised ligand).
For CDKL5 (Homo sapiens, UniProt O76039); binding, competition with immobilised ligand: remaining binding read 96%.
LYN (Homo sapiens, UniProt P07948); cell-free assay, competition with immobilised ligand — remaining binding: 97%.
Tyrosine-protein kinase ABL1, phosphorylated (ABL1, Homo sapiens, UniProt P00519); cell-free assay, competition with immobilised ligand — remaining binding: 79%.
For NTRK1 (Homo sapiens, UniProt P04629); cell-free assay, competition with immobilised ligand: remaining binding read 86%.
SRC (Homo sapiens, UniProt P12931); cell-free assay, competition with immobilised ligand — remaining binding: 89%.
It gave 100% for remaining binding (MAPK6 (Homo sapiens, UniProt Q16659); cell-free assay, competition with immobilised ligand).
EPHA2 (Homo sapiens, UniProt P29317); cell-free assay, competition with immobilised ligand — remaining binding: 100%.
It gave 67% for remaining binding (PNCK (Homo sapiens, UniProt Q6P2M8); cell-free assay, competition with immobilised ligand).
It gave 100% for remaining binding (PIK3CA (Homo sapiens, UniProt P42336, C420R); cell-free assay, competition with immobilised ligand).

Sample 4 — cell line: Huh-7; tested at: 10 µM; time: 24 h
The viability of `O=C1c2ccccc2C(=O)C1c1ccccc1` is reported as 102%.
For `CC(N)[C@]12C[C@H]3C[C@H](C[C@H](C3)C1)C2` (stereo partly drawn), the viability was 97.2%.
`Oc1c(Cl)cc(Cl)cc1Sc1cc(Cl)cc(Cl)c1O` has a viability of 87.3%.

Sample 5 — host: mouse; medium: microsomes or S9; tested at: 2 µM; time: 0.5 h
With `CCOc1ccccc1CN1CCN(Cc2c[nH]c3nccnc23)C(C)C1` (stereo not drawn) the remaining compound was 2.87%.
With `COc1ccccc1N(C)C(=O)c1cc(S(=O)(=O)N2CCOCC2)cn1C` the remaining compound was 18%.
With `CCCc1nc2c(c(C)c(C)n2Cc2ccncc2)c(N)c1CC` the remaining compound was 5.19%.

Sample 6 — target: CRIPT, C-terminal peptide; technique: DHFR complementation, deep sequencing; medium: yeast; reference: wild type; direction: higher = weaker binding
Setting: single substitutions, model-inferred values
Parent: ERBIN, PDZ domain 1 (human); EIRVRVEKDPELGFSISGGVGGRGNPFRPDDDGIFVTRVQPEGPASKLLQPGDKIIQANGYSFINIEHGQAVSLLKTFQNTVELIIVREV; partner TKNYKQTSV
For `F78D`, “binding free energy change” read 0.178 kcal/mol.
For `V90T`, “binding free energy change” read 0.0265 kcal/mol.
`I56G`: “binding free energy change” -0.0541 kcal/mol.
Under “binding free energy change”, `E89R` is recorded as 0.105 kcal/mol.
`P26G` — result for “binding free energy change”: 0.71 kcal/mol.
`Q79L` — result for “binding free energy change”: 0.0649 kcal/mol.
Under “binding free energy change”, `K47H` is recorded as 0.135 kcal/mol.
`E42A` — result for “binding free energy change”: -0.0364 kcal/mol.

Other studies, line by line
`COc1cc(/C=C/C(=O)CC(=O)/C=C/c2ccc(O)c(OC)c2)ccc1O.COc1cc(C=CC(=O)CC(=O)C=Cc2ccc(O)c(OC)c2)ccc1O` gave an inhibition of 66.4% (AlphaScreen signal, AlphaScreen counter screen; His6 peptide without bromodomain; 50 µM, assay interference check).
`CC(C)n1cnc(-c2ccc(F)cc2)c1-c1ncc(C(=O)Nc2ccc(N3CCN(C)CC3)cc2)[nH]1`: “patients with oral herpes” 0% (human, idiopathic pulmonary fibrosis; oral, 60 mg once daily, trial, treatment-emergent).
